Experimental data pooled from the literature.
Lines come from different studies, so protocols differ. Several values in a cell are separate wells, animals, samples, runs or records. Numbers after ± are the reported error.

For `Cc1c(C(=O)O)ccc2c3n(nc12)[C@@H]1[C@H](C3)N(CC2CC2)[C@@]2(C(=O)Nc3cc(Cl)ccc32)[C@H]1c1cccc(Cl)c1F`, the plasma concentration was 1.08 µM (female BALB/c nude mouse, SJSA-1 xenograft, plasma; oral, 1 mg/kg twice daily, 14 h).
`CC(=O)NCc1cc2c(cc1F)C(=O)N(C1CCC(=O)NC1=O)C2` (centres unmarked) has a plasma concentration of 3.1 ± 1.2 ng/mL (CD-1 mouse, male; oral, 10 mg/kg parent drug, 4 h).
With `Cc1ncsc1-c1ccc(CNC(=O)[C@@H]2C[C@@H](O)CN2C(=O)[C@@H](NC(=O)CCCCCCCCCC(=O)N2CCN(CC[C@H](NC(=O)C3(N)CCN(c4ncnc5[nH]ccc45)CC3)c3ccc(Cl)cc3)CC2)C(C)(C)C)cc1` the plasma concentration was over 1 µM (male Swiss albino mouse, plasma; intraperitoneal, 75 mg/kg single dose, maintained over 12 h).
The plasma concentration of `Cc1cc([C@H]2C[C@H]3[C@@H](CF)SC(N)=N[C@@]3(c3ccc(F)cc3F)CO2)on1` is reported as 0.018 µM (male 129/SVE wild-type mouse, plasma; subcutaneous, 30 mg/kg, 14 h).
The plasma concentration of `CC(C)n1ncc2c(C(=O)NCC3(C)CNC3)cc(C3CC3)nc21` is reported as 279 ng/mL and 315 ng/mL and 337 ng/mL and 255 ng/mL (mouse BALB/c female, plasma; intraperitoneal, 50 mg/kg, 8 h).
For `O=[N+]([O-])c1ccc(-c2ccc(O)cc2)c2cccnc12`, the plasma concentration was 6.39 ng/mL (ICR mouse, male; oral, 5 mg/kg, 1 h).
For `CN(C)CC#Cc1ccc2[nH]c3c(c2c1)-c1nc(N)ncc1CCC3`, the plasma concentration was 622 ng/mL (male CD-1 mouse, plasma; intraperitoneal, 30 mg/kg, 1 h).
The plasma concentration of `C[C@H]1O[C@@H](O[C@H]2CC[C@@]3(C)[C@@H](CC[C@]4(C)[C@@H]3C=C[C@]35OC[C@@]6(CCC(C)(C)C[C@H]63)[C@@H](O)C[C@]54C)[C@]2(C)CO)[C@H](O)[C@@H](O[C@@H]2O[C@H](CO)[C@@H](O)[C@H](O)[C@H]2O)[C@H]1O` is reported as 0 ng/mL (UHPLC-MS/MS; mouse, plasma; oral, 50 mg/kg, 12 h, pooled samples).
For `O=C1CCC(N2Cc3cc(CO)c(F)cc3C2=O)C(=O)N1` (centres unmarked), the plasma concentration was 30.7 ± 16.3 ng/mL (CD-1 mouse, male; oral, 10 mg/kg parent drug, 1 h).
`CSc1cc(Oc2ccnc3[nH]c(=O)cnc23)ccc1NC(=O)Nc1cc(C(C)(C)C)nn1-c1ccccc1` gave a plasma concentration of 8 µM and 8.88 µM and 16.6 µM and 3.93 µM and 13.1 µM (NSG mouse, female, tumor; oral, 20 mg/kg, 1 h after last dose).
With `CC(=O)N(C)C1CCN(c2cc(F)cc(NC(=O)c3cc4c(F)ccc(C)c4[nH]3)c2)C1` (centres unmarked) the plasma concentration was 198 ng/mL (CD1 mouse; intravenous, 1 mg/kg, 1 h).
With `CNC(=O)c1cc2c(Oc3ccc(NC(=O)C4(C(=O)Nc5ccc(F)cc5)CC4)cc3)ccnc2cc1OC` the plasma concentration was 63.4 µM (LC-MS/MS; CB.17-SCID mouse, Hs746T xenograft, plasma; oral, 100 mg/kg single dose, 4 h).
With `CC(C)c1cc(C(=O)NCCN)c2cnn(C(C)C)c2n1` the plasma concentration was 2710 ng/mL and 2600 ng/mL and 3050 ng/mL and 2830 ng/mL (mouse BALB/c female, plasma; intraperitoneal, 50 mg/kg, 1 h).
For `c1csc(CNc2cc[nH]n2)c1`, the plasma concentration was 1.79 µM (mouse, CD-1, male, plasma; oral, 20 mg/kg as HCl salt, 1 h).
The plasma concentration of `Cc1coc([C@H]2C[C@H]3[C@@H](CF)SC(N)=N[C@@]3(c3ccc(F)cc3F)CO2)n1` is reported as 0.016 µM (male 129/SVE mouse, plasma; subcutaneous, 80 mg/kg, 7 h).
The plasma concentration of `C[C@@H](O)[C@H]1C(=O)N2C(C(=O)O)=C(S[C@@H]3CN[C@H](C(=O)N(C)C)C3)[C@H](C)[C@H]12` is reported as 4650 ng/mL (BALB/c mouse, male, plasma; intraperitoneal, 100 mg/kg, 6 h).
For `CC(C)(C)c1cc(NC(=O)Nc2ccc(Oc3ccnc4[nH]c(=O)cnc34)cc2F)n(-c2ccccc2)n1`, the plasma concentration was 50.8 µM and 30.1 µM and 113 µM and 27.1 µM and 62.8 µM and 35.3 µM (nude mouse, female, plasma; oral, 20 mg/kg, 1 h after last dose).
For `C[C@]12CC[C@@H]3c4ccc(O)cc4C[C@@H](CCCCCCCCC[S+]([O-])CCCC(F)(F)C(F)(F)F)[C@H]3[C@@H]1CC[C@@H]2O` (some centres unmarked), the plasma concentration was 64 ng/mL (mouse NOD/SCID female MCF7 xenograft, plasma; subcutaneous, 200 mg/kg, 7 days).
For `c1ccc(-c2nc(N3CCC(c4ccccn4)C3)c3ccccc3n2)nc1` (centres unmarked), the plasma concentration was 935 ng/mL (mouse, Balb/c female, plasma; oral, 12.5 mg/kg, 0.25 h, mean, together with: aminobenzotriazole pretreatment).
`CCN1CCN(Cc2ccc(NC(=O)c3ccc(C)c(NC(=O)c4cncc(-c5cccs5)c4)c3)cc2C(F)(F)F)CC1` gave a plasma concentration of 47 ng/mL and 32 ng/mL (LC-MS/MS; C57BL/6 mouse, plasma; intraperitoneal, 10 mg/kg single dose, 6 h).
For `CSc1cc(C)nc(SC)c1NC(=O)CN1CCN(CCSc2nc3ccccc3[nH]2)CC1.Cl`, the plasma concentration was 1.3 ng/mL and 0.8 ng/mL and 23 ng/mL and 2.7 ng/mL (mouse Crl:CD1 (ICR) female, plasma; intranasal, 50 µL of 3.24 mg/mL in 0.01 N HCl daily, 120 min, 7 days dosing).
`Cc1cc([C@H]2C[C@H]3[C@@H](C)SC(N)=N[C@@]3(c3ccc(F)cc3F)CO2)on1` gave a plasma concentration of 0.235 µM (male 129/SVE mouse, plasma; subcutaneous, 50 mg/kg, 7 h).
`CCCCCN1C[C@H](O)[C@@H](O)[C@H](O)[C@@H]1CO` gave a plasma concentration of 324 ng/mL (LC-MS/MS; mouse Hexb-/- female, plasma; 30 mg/kg/day, arithmetic mean).

Repeated from above:
`CSc1cc(Oc2ccnc3[nH]c(=O)cnc23)ccc1NC(=O)Nc1cc(C(C)(C)C)nn1-c1ccccc1` gave a plasma concentration of 8 µM and 8.88 µM and 16.6 µM and 3.93 µM and 13.1 µM (NSG mouse, female, tumor; oral, 20 mg/kg, 1 h after last dose).
With `CC(=O)N(C)C1CCN(c2cc(F)cc(NC(=O)c3cc4c(F)ccc(C)c4[nH]3)c2)C1` (centres unmarked) the plasma concentration was 198 ng/mL (CD1 mouse; intravenous, 1 mg/kg, 1 h).
With `CNC(=O)c1cc2c(Oc3ccc(NC(=O)C4(C(=O)Nc5ccc(F)cc5)CC4)cc3)ccnc2cc1OC` the plasma concentration was 63.4 µM (LC-MS/MS; CB.17-SCID mouse, Hs746T xenograft, plasma; oral, 100 mg/kg single dose, 4 h).
